Experimental data collected from several papers.
A part holds a random share of what one study measured.

Block 1 — method: RNA Bind-n-Seq; molecule type: RNA; matrix: in vitro; tested at: 100 nM; baseline: input RNA pool; direction: higher = stronger binding
Target: RING finger protein unkempt homolog, zinc fingers 1-6, SBP tag (UNK, Homo sapiens, UniProt Q9C0B0, residues 30-357)
Sequence of UniProt Q9C0B0 (30-357, looked up): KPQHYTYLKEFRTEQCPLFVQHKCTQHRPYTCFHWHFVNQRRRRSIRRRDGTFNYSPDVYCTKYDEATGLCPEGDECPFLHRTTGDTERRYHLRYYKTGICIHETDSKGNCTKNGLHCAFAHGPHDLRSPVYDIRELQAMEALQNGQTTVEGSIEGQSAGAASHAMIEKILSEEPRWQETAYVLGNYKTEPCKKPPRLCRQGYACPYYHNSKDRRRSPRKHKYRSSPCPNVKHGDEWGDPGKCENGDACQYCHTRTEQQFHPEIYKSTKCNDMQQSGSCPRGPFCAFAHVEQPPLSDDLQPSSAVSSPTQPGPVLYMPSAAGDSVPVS
Notes: RNA with constant flanks, vertebrate orthologous sites, ends assumed
Constant ends, left off below: GGGAGUUCUACAGUCCGACGAUC … CAACAGAGGAUUGAGCAUCA
Sequence	bound/input enrichment [ratio]
CCCUCUGAACCCCAUAUCUUCUGUUUCAUAGUGCAGAAGUAUUCUUUUCAAUUAUAUUACUAGUGGACUUGUUUUAAUUUUAGAGAAACUUUCAGUACAGAUACUGUGAGCUUACAUGGA	2.95
CAGUCUGCUCCUGGGCGAGUGACUGAGGGUGAAGCAUCCACUAGCGCUUCGAGGGCAUCAUAGUAUUUUUUUGCUGCCUCAGAGUCCCCAAAGCCUUCAAGCGGAAGUGGUAGUAGAUGG	1.59
UUGUUUUGUACAGGACCUUCUCUGUACUAGUUUGUUGUAGUUAUAAAAGAGUUAGCAAACCGGCUUACAUUUGUAUUUAUUUUCUAUUCCAUACUUUCCCCUGCCUCAUAUUUUUUCUUC	1.1
GUGGGGAUGAGGGUGGGAUGGGAAAGGGAUGUAUGGAUGUUACUGGCAUUUUUAAGUGUUUUAGAGUUUUUUGGGGUUUGGGGUGGUUUUUUUCCUUGUUUUCCUUUUUUCCUUUUAAUU	1.95
GUGUUGGUGCAGAGUGCUCUGUACCAGUGCUCAUCGUCCCUUCUUCAUACCAACUGUCCUAGUUAUAGGGAUAUUUUUAAAAGUUUUACAUUGCUGUAUAUUCAAAGAAUUGUUUUAUUA	0.434
UACAUCUGGUGAUAUUUGGCCUGGUCUUUCAGCGUAUGAUAAUAGUCCUAGAUCUCCGCACAGUCCUUCACCUAUUGCUACACCACCUAGUCAGAGUUCAUCAUGCUCUGAUGCUCCUAU	0.54
UACAAUCUCUACUCAAGCAGGUAUUUACGUACCACAAUAAGCCUUCAUUUGACAUAUUUACAGCUUUUCUAUUUUCCAGAUGAGAGAAAAGAAUUCCAUGCUUAGAGUUAAAUAUGGUCU	0.574
CUGUGAGGGUCUACUGACCACUCACUAUUAUGUCUGGUAUCUGUAAACACUUUCUGUUCUUAGUCCUUUCCUUGUAAAAUUGAUGUUCUUUAAAAUUGUUAAUGUAUAACAGGGCUUAUG	0.946
ACGCUUUGAUGUAAAAUUUGACAUAAAGAGCAGCUGAUCGCAAGCACGACCCCUCCCCUCUAGCCAUUUAAAAAGUUGAAAAAAAAAAUGAUAAAAAACAAAAAACCUACUAGUCUUGAA	3.97
GCAUCACAGAUUACUCUUGUUUCUGUAGCAGAUAGAAAAUUUUGCAACUAAUGUAUACAUCUCAUUGAGCUGAAUAUAUUUUUUAUUAGCCUGUAAAUAAAUAUACUCUUCUUCAUUGCA	0.783
CUCCCUCCCAGGACUGAGCAGUGGGGCCUGGGCCCACUGGCCACAUCAGCCAGGCCAUUUUAGCUCUUUUUUUUUUUUAAACAGUGCCCUUGUUAUCCUGUAUAUAAGUGGAGAUUUGGA	1.94

Block 2 — method: protein binding microarray; molecule type: double-stranded DNA, one strand shown; matrix: in vitro; tested at: not given; baseline: not given; direction: higher = stronger binding
Target: Histone acetyltransferase KAT6A, winged helix 2, GST fusion (KAT6A, Homo sapiens, UniProt Q92794, residues 85-181)
Notes: 8-mer, flanks averaged, mean of 2 arrays, mostly near background
Residues (chain): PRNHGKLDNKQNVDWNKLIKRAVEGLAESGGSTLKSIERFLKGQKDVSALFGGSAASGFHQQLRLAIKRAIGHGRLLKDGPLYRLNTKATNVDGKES
Sequence	E-score
CGCTCCAA	-0.00107
ACGCCAGC	0.0805
GCATTTAC	-0.0434
AGCGGTGA	-0.0439
CTTGATGA	0.0305
GCGTCCTA	0.0443
CCGGACGA	0.166
GCCCTGCA	0.0655
GCGGATAC	0.0576
AGTTTTAA	0.027
AAACTGCG	0.00477
AGCCTCAG	0.0299
ACGCGGAA	0.0053
GGAGCATA	0.0997
ACGACGTG	-0.0863
ACCTGGAT	-0.000845
CAAGATCG	0.129
AAGCTCTC	0.0671
GAAACCTC	-0.115
CACATTCC	-0.115
ACGCGTGG	0.0143
CAAAGGTG	-0.177

Block 3 — method: RNA Bind-n-Seq; molecule type: RNA; matrix: in vitro; tested at: 200 nM; notes: whole 134-nt RNA, ends assumed; added: 150 mM LiCl; baseline: input library; direction: higher = stronger binding; each molecule: 7-deaza-guanosine replaces G
Target: Ras GTPase-activating protein-binding protein 1, full length (G3BP1, Homo sapiens, UniProt Q13283)
Sequence of UniProt Q13283 (whole entry, looked up): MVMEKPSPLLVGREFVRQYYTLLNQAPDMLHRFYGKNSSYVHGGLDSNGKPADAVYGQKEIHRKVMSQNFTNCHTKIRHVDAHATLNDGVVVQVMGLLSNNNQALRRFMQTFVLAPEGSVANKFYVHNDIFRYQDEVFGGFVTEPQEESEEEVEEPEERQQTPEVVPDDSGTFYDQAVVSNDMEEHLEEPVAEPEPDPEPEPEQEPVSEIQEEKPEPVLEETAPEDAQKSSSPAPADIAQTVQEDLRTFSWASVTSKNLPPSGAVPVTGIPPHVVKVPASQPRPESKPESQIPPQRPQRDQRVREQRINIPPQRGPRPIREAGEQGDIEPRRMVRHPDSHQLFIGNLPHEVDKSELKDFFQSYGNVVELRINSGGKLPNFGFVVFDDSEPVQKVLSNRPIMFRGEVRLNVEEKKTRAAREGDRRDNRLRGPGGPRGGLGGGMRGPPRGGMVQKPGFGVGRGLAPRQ
Constant ends, left off below: GGGAGUUCUACAGUCCGACGAUC … UGGAAUUCUCGGGUGUCAAGG
Sequence	log2 enrichment
CAAGUCCUGUGCUACACAUCGUAUGUACCGAAUCGGGGUGGGGUGGGGUUUGGGGAAAGUAUUAUGUUACGCCGUUCGGAUCUGCACUUC	-0.679
UGGGAGGUGGAUUUUGUUUAUUUUUUUAGCUCAUUUCCAGGGGUGGGAAUUUUUUGUUAAUAUGUGUCAUGAAUAAAGUUGUUUUUGAAA	-0.497
UGGGAGGUGGAUUUUGUUUAUUUUUUUAGCUCAUUUCCAGGGGUGGGAAUUUUUUUUUAAUAUGUGUCAUGAAUAGAGUUGUUUUUGAAA	0.129
UAGUAACAGGGGUGAAGAUGCCUUUUGUGAUCCUGAAGAUGAAUGGGAACCCGACAUUACAGAUGCACCAGUUUCUUCACUUUCUAGAAG	-2.69
UCUAUUCAUAAGAACCCCAACACAUCGGAGCCCCAACACCUGUUGGUGAUGAAGGGCGCCCCAGAAAGGAUCCUAGACCGUUGCAGCUCU	1.68
UGUACAAACACUUUCCCAUCCCCCUCAUUAACCGGCUGGAGAAGCACUAUCUGGAUAUCAACACGGUGCUGGAGAAAUGGCAGAAGAGCA	0.311
GUCCUGUGCUACACAUCGUAUGUACCGAAUCGGGGUUUUUGGUUUUUGGGUUUUUGGGGAAAGUAUUAUGUUACGCCGUUCGGAUCUGCA	-0.553
AGUCCUGUGCUACACAUCGUAUGUACCGAAUCGGUUUUUUGGUUUUUUGGUUUUUUGGAAAGUAUUAUGUUACGCCGUUCGGAUCUGCAC	-0.961
CUCAAGUCCUGUGCUACACAUCGUAUGUACCGAAUCGGGCGGGCGGGGCGGGGAAAGUAUUAUGUUACGCCGUUCGGAUCUGCACUUCCA	-0.0905
CUGUGCUACACAUCGUAUGUACCGAAUCGGGGUUUUUUGGGGUUUUUUGGGGUUUUUUGGGAAAGUAUUAUGUUACGCCGUUCGGAUCUG	1.28
CAAGUCCUGUGCUACACAUCGUAUGUACCGAAUCGGGGUUUGGGUUUGGUUUGGGGAAAGUAUUAUGUUACGCCGUUCGGAUCUGCACUU	-0.296

Block 4 — method: RNAcompete; molecule type: RNA; matrix: in vitro; tested at: 20 nM; notes: 7-mer, probes averaged, single round; baseline: mean of 7-mers; direction: higher = stronger binding
Target: PABPC1L2, full length, GST fusion (mouse, UniProt A0ABA7IW68)
Sequence	7-mer Z-score
CCCGUUU	-0.396
UCAAGAG	-0.0264
UGGAACU	-0.15
GCUGCCU	-0.26
AACUCAC	-0.0917
AUCUUUG	-0.255
CUAGCAA	0.0297
CUGGAUG	-0.0699
GUCAUAG	-0.193
CAGCAUC	-0.166
UUCGGAU	-0.291
CCCAAUU	-0.313
CUGUAGA	-0.0464
UAAAUAA	1.93
UAGCCGU	-0.349
GACAAUG	-0.0301
GGUAAAC	0.213
CGUGUGG	0.142
UCGGUUC	-0.333
ACGUUUA	-0.257

Block 5 — method: universal PBM; molecule type: double-stranded DNA, one strand shown; matrix: in vitro; tested at: 600 nM; direction: higher = stronger binding
Target: Sal-like protein 4, full length isoform A (SALL4, Homo sapiens, UniProt Q9UJQ4, residues 1-1053)
Sequence of UniProt Q9UJQ4 (whole entry, looked up): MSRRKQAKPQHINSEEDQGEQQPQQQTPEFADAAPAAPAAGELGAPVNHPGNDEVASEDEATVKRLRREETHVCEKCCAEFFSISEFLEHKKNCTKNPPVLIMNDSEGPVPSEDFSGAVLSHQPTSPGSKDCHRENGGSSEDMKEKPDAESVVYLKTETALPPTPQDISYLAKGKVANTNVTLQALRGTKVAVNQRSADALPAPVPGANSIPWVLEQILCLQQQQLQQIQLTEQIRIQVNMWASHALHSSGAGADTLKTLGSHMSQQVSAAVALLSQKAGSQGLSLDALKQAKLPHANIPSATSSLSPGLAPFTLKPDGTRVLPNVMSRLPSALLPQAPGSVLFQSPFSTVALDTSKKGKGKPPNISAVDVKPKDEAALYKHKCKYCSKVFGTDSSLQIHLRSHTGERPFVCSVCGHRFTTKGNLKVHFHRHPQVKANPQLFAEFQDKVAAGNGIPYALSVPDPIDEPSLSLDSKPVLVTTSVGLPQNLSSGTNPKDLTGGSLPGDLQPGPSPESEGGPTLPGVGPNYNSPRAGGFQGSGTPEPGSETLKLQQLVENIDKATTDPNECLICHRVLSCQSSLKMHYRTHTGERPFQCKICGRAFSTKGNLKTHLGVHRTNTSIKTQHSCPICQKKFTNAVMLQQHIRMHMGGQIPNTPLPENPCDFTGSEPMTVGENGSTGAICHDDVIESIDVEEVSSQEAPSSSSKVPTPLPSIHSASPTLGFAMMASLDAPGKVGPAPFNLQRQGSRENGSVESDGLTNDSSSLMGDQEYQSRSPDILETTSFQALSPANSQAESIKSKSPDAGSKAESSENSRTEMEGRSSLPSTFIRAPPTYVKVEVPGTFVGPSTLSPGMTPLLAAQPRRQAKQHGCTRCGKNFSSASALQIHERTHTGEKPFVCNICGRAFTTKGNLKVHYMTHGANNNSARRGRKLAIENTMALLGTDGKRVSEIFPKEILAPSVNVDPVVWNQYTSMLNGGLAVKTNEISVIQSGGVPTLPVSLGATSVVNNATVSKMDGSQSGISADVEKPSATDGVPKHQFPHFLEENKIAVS
Notes: 8-mer, flanks averaged, mean of replicates
Sequence	E-score
ATTTCTTC	0.283
GCTCTCTA	-0.0226
TAAGCTTA	0.2
CCGACACC	-0.307
ACATCGAA	0.15
AGAAATCT	0.205
ACAAGAGG	-0.102
ACCGGCAG	-0.296
CTCTGAAC	-0.118
GAGTCAAA	0.0156
CCACGCGC	-0.279
CGTACTTA	0.103
CGCACGAA	-0.0443
TGGGCCCA	-0.26
CACGGCGG	-0.234
GTTAGACA	0.195

Block 6 — method: protein-binding microarray; molecule type: double-stranded DNA, one strand shown; matrix: in vitro; tested at: not given; direction: higher = stronger binding
Target: Transcriptional repressor CTCF (CTCF, Homo sapiens, UniProt P49711, residues 1-727, full length assumed)
Notes: k-mer, scored over probes, only values ≥0.25
Residues (chain): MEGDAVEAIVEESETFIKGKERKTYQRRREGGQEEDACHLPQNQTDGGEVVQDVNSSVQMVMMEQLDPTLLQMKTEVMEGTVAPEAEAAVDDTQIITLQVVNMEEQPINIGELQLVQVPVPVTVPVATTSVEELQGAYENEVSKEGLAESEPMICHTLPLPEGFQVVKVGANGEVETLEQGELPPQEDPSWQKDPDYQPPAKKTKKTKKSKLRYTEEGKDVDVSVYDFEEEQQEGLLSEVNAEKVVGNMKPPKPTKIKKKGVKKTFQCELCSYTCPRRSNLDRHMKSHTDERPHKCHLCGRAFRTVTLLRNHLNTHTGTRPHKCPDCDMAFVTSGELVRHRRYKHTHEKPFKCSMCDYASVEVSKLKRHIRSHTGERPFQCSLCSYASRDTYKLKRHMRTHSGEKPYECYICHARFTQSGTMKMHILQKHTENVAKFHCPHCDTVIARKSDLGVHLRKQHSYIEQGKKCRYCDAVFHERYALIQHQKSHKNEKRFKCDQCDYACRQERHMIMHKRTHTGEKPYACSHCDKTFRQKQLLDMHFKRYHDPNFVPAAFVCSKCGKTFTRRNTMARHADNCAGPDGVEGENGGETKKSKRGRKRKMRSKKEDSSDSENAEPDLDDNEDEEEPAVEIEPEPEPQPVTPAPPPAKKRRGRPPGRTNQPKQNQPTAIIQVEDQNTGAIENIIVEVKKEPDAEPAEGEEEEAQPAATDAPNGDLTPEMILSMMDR
Sequence	E-score
ATTAATCG	0.259
TATAAACA	0.344
GCAATACA	0.304
ATACATAT	0.36
AAGTGGCG	0.318
TGCGCACA	0.422
GATAATTA	0.289
TCATTAAA	0.328
ATTCGCGC	0.343
CGTAATCA	0.291
ATTGCACC	0.276
ATAAATAC	0.288
ATTTCCTG	0.262
AGCGCGTA	0.335
AACAGAAA	0.262
AAATATTT	0.307

Single results of other studies
Substance	target	assay	system	setting	scale	endpoint	result
PhoQ, residues 284 288 289 292 302 303 TSTLRA	PhoP, residues 12 14 15 18 19 NQCAL (Escherichia coli, UniProt P23836)	Sort-seq, refers to: YFP reporter	E. coli	PhoQ-PhoP variant library, added: 10 µM Mg2+	baseline: high Mg2+ state, higher = stronger signaling	fold induction	10.7

Repeated from above (block 6):
Sequence	E-score
ATACATAT	0.36
TGCGCACA	0.422
ATTCGCGC	0.343
ATTTCCTG	0.262
AAATATTT	0.307
GCAATACA	0.304
TATAAACA	0.344
ATTGCACC	0.276
AACAGAAA	0.262
AAGTGGCG	0.318
GATAATTA	0.289
CGTAATCA	0.291
ATTAATCG	0.259
